# Published values from different studies.
# Numbered parts are unrelated; each lists some results of a single study. Positions count from the first letter of the parent shown.

# Block 1
# Target: RNA binding protein fox-1 homolog 2, RRM domain, GST-SBP tag (RBFOX2, Homo sapiens, UniProt O43251-10, residues 100-194)
# Technique: RNA Bind-n-Seq
# Form: RNA
# Medium: in vitro
# Tested at: 365 nM
# Notes: natural RNA segment, single round, ends assumed
# Baseline: no-protein control
# Direction: higher = stronger binding
# Residues (chain): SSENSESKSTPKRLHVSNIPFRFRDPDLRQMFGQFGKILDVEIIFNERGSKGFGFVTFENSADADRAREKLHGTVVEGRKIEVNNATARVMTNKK
Oligonucleotide,RBNS enrichment (R)
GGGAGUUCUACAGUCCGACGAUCAGGAGGCAGAGCCACAGCCAAGGCCCUGACCACUUCUGUGCCAGUUGUCUAAGCAGAGCGCCUCAGGGACGCUGGAAAUGCCUUAAGGAUAGAGGCUGGGCAUCACAUCAUGGAAUUCUCGGGUGCCAA,0.736
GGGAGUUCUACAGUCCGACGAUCGAGCUAGGCUAUGAAGGGAAGAUGUGGCCGUACGUGGGAAUAACCAGUGUCCCACGCUCAUUUUCCCUCCAUCCUGCGUUCCGCCUCCCUUGGUACUCAGCCUUUUGGGGUGGAAUUCUCGGGUGCCAA,0.272
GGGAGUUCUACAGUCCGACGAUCUGAAGCUUGGAGAAAACUCUGCAUUCCCAUGAGGGCAAAGGCAGCUGCCCUCCCUGACCCUAUAGCCCCAGGCCUCAUGGGGGGUAUGUGGGGAAGGGAUGGGGUAUCCCUGGAAUUCUCGGGUGCCAA,0.818
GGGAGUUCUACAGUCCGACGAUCGAUGCAGAACGCCAGAUUUUUGAAUCUCAAGUAACUUUCUGUGGUGCUGGACAAAUUGACUUAAUUCUGUGCAGGCAAACACUUUGAAUCAUAAGGAUUUUUAUUGCCGCUGGAAUUCUCGGGUGCCAA,0.522
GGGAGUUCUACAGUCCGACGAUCAGAAUAGUGGGGCCCAGCCGAUGUGGUAGGUGAUAAAGAGGCAUCUUUUCUAGAGACACAUUGGACCAGAUGAGGAUCCGAAACGGCAGCCUUUACGUUCAUCACCUGCUUGGAAUUCUCGGGUGCCAA,0.325
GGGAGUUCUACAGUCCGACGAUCUUAAAAAAAUGCCAUAACUAUUAAACACCUUGUUUACAGACAGAUGAAAUAAAUUUAUUCCAACCAAUACUCUAGGCUCCUGUUGUUUAUAUACAUUGUUUAUAUAAACUUGGAAUUCUCGGGUGCCAA,0.308
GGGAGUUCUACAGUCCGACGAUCCCCCAUUCUGAAAGUCUGGCUUAGCGGGCAACACAGAGCCCUCAGCAUCCCAAACAUUGCCAGGAGGCUUCCCUGGACCCCAGCGAGACCCUGGCCUCUCUUGUCUGCACUGGAAUUCUCGGGUGCCAA,1.56
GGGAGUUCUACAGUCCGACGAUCCUCUCACGGUCCUCCUUCCUGGGACCUGAGCAGGUUUGGUGAAAGCCACCGUCCUCCGUGACACACGGCCCCCUUCCUCCUGUCCCCACACUCCCAGGAGAAACUCCCGGUGGAAUUCUCGGGUGCCAA,0.353

# Block 2
# Target: Interferon regulatory factor 5, full length, phosphomimetic (IRF5, Homo sapiens, UniProt Q13568-2, residues 1-514, S451D/S453D/S456D/S462D)
# Technique: protein-binding microarray
# Form: double-stranded DNA, one strand shown
# Medium: in vitro
# Tested at: 940 nM top
# Notes: 60-bp whole probe
# Together with: salmon DNA 0.4 mg/ml
# Baseline: random background probes
# Direction: higher = stronger binding
# All sequences stand within: GCCTAGCAC … GTCTTGATTCGCTTGACGCTGCTG
Oligonucleotide,fitted relative affinity
AGATGTGTCTTAAATAGGGCAGTGCTA,-0.58 z-score
GTAGGACTGGACTATCGGTTAGTGCTA,-0.395 z-score
TCAGCTGTTTTTCTCACCACGTGCTAG,0.9 z-score
TTAGGACTGGACTTTCTGTTAGTGCTA,0.603 z-score
TTTTTTTTTTTTTGGAATGTGTGCTAG,0.753 z-score
TCCCATTAAATTTTAATAACGTGCTAG,0.846 z-score
TCAATTATATATATCATACTGTGCTAG,0.334 z-score
GGATGTGTCTTAAATAGGGCAGTGCTA,-0.372 z-score
CTAGGTCTCGGACTGGGTTAGTGCTAG,0.429 z-score
TTTTTTTTTTTTTTTTGTATGTGCTAG,1.69 z-score
TAAGATCTCAGTATCGATTAGTGCTAG,4.92 z-score
TTAGGTATCGACTTTCGGTTTGTGCTA,6.56 z-score
GACGAGTTCGGGTATCGAGACGTGCTA,0.96 z-score
GACGGTTTCCTTATTCTGACGTGCTAG,1.92 z-score
TTAAGTTTCGGTATCGGTTAGTGCTAG,15.3 z-score
TCAGAATTCAGAATGGGACTGTGCTAG,-0.302 z-score
ATAGATCTCAGTCTCGATTAGTGCTAG,3.26 z-score
AGCAAAAATGATTGGTTGAAGTGCTAG,-0.455 z-score
TTAGGACTGGGTATCGGTCAGTGCTAG,3.16 z-score

# Block 3
# Target: CCNB3, cyclin fold, Cln2 fusion (human)
# Technique: yeast growth competition, sequencing
# Medium: yeast
# Notes: weak parent motif
# Baseline: not given
# Direction: higher = stronger binding
# Starting sequence: E2F1 docking peptide (human); PPVKRRLDLETDH
Change,normalised enrichment score
V3A,0.719
H13K,0.712
P2L,0.142
H13N,0.223
H13Q,0.385
P2G,0.464
T11I,-0.0198
L7W,-0.00153
T11K,0.466
D12E,0.27
D12S,0.47
R5G,-0.112
R5Y,0.153
L7P,0.26
V3S,0.185

# Block 4
# Target: Histone acetyltransferase KAT6A, both winged helices, GST fusion (KAT6A, Homo sapiens, UniProt Q92794, residues 1-181)
# Technique: protein binding microarray
# Form: double-stranded DNA, one strand shown
# Medium: in vitro
# Tested at: not given
# Notes: 8-mer, flanks averaged, mean of 2 arrays, mostly near background
# Baseline: not given
# Direction: higher = stronger binding
# Target sequence (chain): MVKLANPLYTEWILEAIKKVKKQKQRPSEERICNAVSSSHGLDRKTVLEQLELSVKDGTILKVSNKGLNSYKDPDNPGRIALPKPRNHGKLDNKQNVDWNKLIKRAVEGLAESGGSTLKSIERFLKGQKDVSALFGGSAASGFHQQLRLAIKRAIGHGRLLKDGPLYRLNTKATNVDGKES
Oligonucleotide,E-score
TGTACACA,-0.0158
ATGCTCCG,0.106
ATAGTCTG,-0.126
GAGCTGTA,-0.227
CGTGAATC,0.065
GAGCTAAA,-0.2
CATTCGAG,-0.0365
AAAGGCTT,-0.233
AGGCGTTG,0.0774
CACCTATC,-0.0992
CTCCGAAC,0.206
AATGAATC,-0.188
CAGACGAC,-0.0852
AGAGCGAG,0.0459
GTTGTAAA,-0.0122
GCAGCTCC,-0.0628
AATGGATC,0.0501
ATGCAAAT,-0.114
CAGCCAGC,-0.283
CGACGGCG,0.364
CCGTTAGG,0.188
TGACGTCA,0.175
GAGAGCGC,0.153
CCTGGGCC,-0.137
AGGTGCGG,0.128

# Repeated from above (block 4):
Oligonucleotide,E-score
TGTACACA,-0.0158
ATGCTCCG,0.106
ATAGTCTG,-0.126
GAGCTGTA,-0.227
